Published values collected from several papers.
Each numbered part is a random draw from the data of one study; scales do not carry over between parts. Values joined by “and” are separate records of one study, mostly repeats; a detail may differ.
Chain of UniProt P53778 (whole entry, looked up): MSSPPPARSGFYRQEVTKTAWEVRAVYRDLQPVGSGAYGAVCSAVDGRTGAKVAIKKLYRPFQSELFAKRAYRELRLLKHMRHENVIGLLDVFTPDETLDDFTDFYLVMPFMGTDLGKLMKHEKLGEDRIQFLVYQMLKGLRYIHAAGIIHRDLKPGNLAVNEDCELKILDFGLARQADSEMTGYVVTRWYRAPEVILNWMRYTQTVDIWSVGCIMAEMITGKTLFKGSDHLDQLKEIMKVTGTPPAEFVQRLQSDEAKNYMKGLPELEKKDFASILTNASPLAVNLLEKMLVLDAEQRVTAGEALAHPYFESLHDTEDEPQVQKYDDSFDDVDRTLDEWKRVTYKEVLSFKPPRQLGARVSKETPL
Chain of UniProt Q8NEV4 (whole entry, looked up): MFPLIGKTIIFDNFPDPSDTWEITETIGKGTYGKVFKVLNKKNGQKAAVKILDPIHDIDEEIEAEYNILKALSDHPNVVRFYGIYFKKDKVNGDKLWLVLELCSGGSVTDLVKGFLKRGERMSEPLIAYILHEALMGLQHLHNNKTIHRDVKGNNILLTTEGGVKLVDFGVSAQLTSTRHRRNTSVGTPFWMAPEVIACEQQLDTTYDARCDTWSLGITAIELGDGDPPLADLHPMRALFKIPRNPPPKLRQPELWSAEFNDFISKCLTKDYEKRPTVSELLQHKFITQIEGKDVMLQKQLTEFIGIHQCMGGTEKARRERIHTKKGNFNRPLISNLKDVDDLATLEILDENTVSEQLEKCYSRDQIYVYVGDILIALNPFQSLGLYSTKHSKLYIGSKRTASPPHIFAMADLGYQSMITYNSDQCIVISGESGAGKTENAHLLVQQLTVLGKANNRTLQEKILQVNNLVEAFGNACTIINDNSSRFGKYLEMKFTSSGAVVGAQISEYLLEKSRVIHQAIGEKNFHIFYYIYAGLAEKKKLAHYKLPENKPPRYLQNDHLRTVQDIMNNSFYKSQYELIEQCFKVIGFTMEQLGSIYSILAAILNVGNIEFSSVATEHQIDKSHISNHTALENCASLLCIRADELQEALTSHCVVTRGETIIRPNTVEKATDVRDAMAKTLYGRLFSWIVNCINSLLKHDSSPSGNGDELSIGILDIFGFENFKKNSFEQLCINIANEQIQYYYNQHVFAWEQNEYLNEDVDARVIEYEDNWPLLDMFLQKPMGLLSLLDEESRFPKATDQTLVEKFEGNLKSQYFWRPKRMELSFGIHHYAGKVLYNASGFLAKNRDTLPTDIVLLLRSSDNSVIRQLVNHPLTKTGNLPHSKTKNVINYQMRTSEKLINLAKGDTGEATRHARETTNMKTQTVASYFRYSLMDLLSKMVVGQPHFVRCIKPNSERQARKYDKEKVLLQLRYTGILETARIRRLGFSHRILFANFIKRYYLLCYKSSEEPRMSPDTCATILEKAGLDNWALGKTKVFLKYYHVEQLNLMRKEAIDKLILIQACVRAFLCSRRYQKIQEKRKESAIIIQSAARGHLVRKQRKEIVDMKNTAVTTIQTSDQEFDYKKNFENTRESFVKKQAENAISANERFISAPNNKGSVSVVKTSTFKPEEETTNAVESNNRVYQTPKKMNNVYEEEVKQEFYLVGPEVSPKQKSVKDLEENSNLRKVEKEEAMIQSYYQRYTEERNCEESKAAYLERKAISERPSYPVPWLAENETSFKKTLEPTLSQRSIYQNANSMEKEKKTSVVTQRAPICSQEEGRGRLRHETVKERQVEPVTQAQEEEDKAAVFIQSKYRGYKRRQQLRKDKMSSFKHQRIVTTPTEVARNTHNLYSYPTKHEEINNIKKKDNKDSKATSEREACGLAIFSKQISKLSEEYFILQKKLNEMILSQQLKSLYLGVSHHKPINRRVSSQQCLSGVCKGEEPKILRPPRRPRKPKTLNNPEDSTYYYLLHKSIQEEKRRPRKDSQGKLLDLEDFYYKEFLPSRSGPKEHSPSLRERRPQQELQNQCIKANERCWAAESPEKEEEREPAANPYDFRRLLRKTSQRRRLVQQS
Chain of UniProt P49336 (whole entry, looked up): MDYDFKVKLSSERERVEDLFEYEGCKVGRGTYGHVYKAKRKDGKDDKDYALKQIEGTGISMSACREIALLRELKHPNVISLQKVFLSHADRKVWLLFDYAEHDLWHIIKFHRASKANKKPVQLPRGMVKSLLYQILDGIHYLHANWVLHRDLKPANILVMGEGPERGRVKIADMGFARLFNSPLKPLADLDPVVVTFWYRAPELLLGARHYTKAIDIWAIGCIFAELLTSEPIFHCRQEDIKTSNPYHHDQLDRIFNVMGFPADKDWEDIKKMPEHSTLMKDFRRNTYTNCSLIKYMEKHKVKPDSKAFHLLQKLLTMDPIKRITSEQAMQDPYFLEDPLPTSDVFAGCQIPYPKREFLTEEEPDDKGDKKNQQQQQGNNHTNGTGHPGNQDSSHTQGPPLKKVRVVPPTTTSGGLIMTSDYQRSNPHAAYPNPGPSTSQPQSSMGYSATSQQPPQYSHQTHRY

Block 1
Target: Rhodopsin kinase GRK7 (GRK7, Homo sapiens, UniProt Q8WTQ7)
Effect on: enzyme activity
Mode: inhibitor
Concentration: 0.5 µM
Reference: control
Target sequence (Q8WTQ7 1-553): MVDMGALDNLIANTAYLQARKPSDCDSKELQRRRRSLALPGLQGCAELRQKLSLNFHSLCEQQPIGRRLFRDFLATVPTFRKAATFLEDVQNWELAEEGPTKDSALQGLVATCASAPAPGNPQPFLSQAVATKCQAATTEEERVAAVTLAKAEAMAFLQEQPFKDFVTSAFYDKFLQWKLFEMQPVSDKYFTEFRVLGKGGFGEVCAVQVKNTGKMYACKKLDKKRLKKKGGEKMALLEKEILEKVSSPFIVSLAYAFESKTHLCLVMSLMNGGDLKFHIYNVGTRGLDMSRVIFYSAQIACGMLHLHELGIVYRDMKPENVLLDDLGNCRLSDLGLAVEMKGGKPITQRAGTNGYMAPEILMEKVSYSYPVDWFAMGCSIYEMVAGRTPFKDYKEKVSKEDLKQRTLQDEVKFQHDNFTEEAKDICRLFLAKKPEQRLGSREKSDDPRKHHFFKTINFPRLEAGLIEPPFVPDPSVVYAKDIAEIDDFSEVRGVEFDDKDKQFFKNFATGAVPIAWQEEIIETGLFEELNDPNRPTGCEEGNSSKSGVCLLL
| Compound | remaining activity [%] |
| --- | --- |
| Cc1nc(-c2ccccc2)c(-c2ccncc2)o1 | 98.3 |
| CNC(=O)c1cc(Oc2ccc(NC(=O)Nc3ccc(Cl)c(C(F)(F)F)c3)cc2)ccn1 | 97.3 |
| OCC(O)CCON=C1C(c2c(O)[nH]c3ccccc23)=Nc2ccccc21 (stereo not shown) | 70.3 |
| CN(C)c1ccc(C=C2C(=O)Nc3ccccc32)cc1 | 100 |
| O=C1NC(=O)C(c2cn(CCCn3ccnc3)c3ccccc23)=C1Nc1ccccc1 | 86.3 |
| Cc1ccc(NC(=O)c2ccc(CN3CCN(C)CC3)cc2)cc1Nc1nc(-c2cccnc2)cs1 | 104 |
| N#CC(C#N)=C(N)/C(C#N)=C/c1ccc(O)cc1 | 104 |
| COc1ccc(OC)c2c(=S)c3ccccc3[nH]c12 | 102 |
| Cn1sc(=O)n(Cc2ccccc2)c1=O | 112 |
| COc1cc2ncnc(Nc3ccc(Oc4ccccc4)cc3)c2cc1OC | 103 |
| COc1cc2nccc(Oc3ccc(NC(=S)NC(=O)c4ccccc4C)cc3)c2cc1OC | 95.6 |
| NCCNc1ncc(C(N)=O)c(Nc2cccc(C(F)(F)F)c2)n1 | 77.6 |
| Nc1ncnc2n[nH]c(Nc3ccc(F)cc3)c12 | 105 |
| CO[C@H]1C[C@@H]2CC[C@@H](C)[C@@](O)(O2)C(=O)C(=O)N2CCCC[C@H]2C(=O)O[C@H]([C@H](C)C[C@@H]2CC[C@@H](O)[C@H](OC)C2)CC(=O)[C@H](C)/C=C(\C)[C@@H](O)[C@@H](OC)C(=O)[C@H](C)C[C@H](C)/C=C/C=C/C=C/1C | 98 |
| O=C(O)c1ccc2c3c1cccc3c(=O)n1c3ccccc3nc21 | 102 |

Block 2
Compound: CC(=O)Nc1c(C(C)=O)c(=O)n(C)c2nc(-c3ccc(Cl)cc3Cl)c(-c3ccc(Cl)cc3)cc12
Method: competition with immobilised ligand
Concentration: 1 µM
| target | effect on | remaining binding [%] |
| --- | --- | --- |
| Tyrosine-protein kinase JAK1, JH1 (JAK1, Homo sapiens, UniProt P23458) | cell-free assay | 100 |
| Mitogen-activated protein kinase 12 (MAPK12, Homo sapiens, UniProt P53778) | cell-free assay | 100 |
| Cyclin-dependent kinase 8 (CDK8, Homo sapiens, UniProt P49336) | cell-free assay | 100 |
| Testis-specific serine/threonine-protein kinase 3 (TSSK3, Homo sapiens, UniProt Q96PN8) | cell-free assay | 100 |
| 5'-AMP-activated protein kinase catalytic subunit alpha-2 (PRKAA2, Homo sapiens, UniProt P54646) | cell-free assay | 100 |
| Microtubule-associated serine/threonine-protein kinase 1 (MAST1, Homo sapiens, UniProt Q9Y2H9) | cell-free assay | 100 |
| Myosin-IIIa (MYO3A, Homo sapiens, UniProt Q8NEV4) | cell-free assay | 100 |
| Mitogen-activated protein kinase 10 (MAPK10, Homo sapiens, UniProt P53779) | cell-free assay | 100 |
| Tyrosine-protein kinase ITK/TSK (ITK, Homo sapiens, UniProt Q08881) | cell-free assay | 100 |
| Dual specificity mitogen-activated protein kinase kinase 3 (MAP2K3, Homo sapiens, UniProt P46734) | cell-free assay | 86 |
| Testis-specific serine/threonine-protein kinase 1 (TSSK1B, Homo sapiens, UniProt Q9BXA7) | cell-free assay | 100 |
| Protein kinase C epsilon type (PRKCE, Homo sapiens, UniProt Q02156) | binding | 48 |
| Serine/threonine-protein kinase PAK 6 (PAK6, Homo sapiens, UniProt Q9NQU5) | cell-free assay | 100 |

Block 3
Structure (SMILES): O=C(Nc1cnn(-c2csc(C(=O)NC3COC3)c2)c1)Nc1ccccc1Cl
Effect on: enzyme activity
Concentration: 5 µM
| target | mode | reference | remaining activity |
| --- | --- | --- | --- |
| Aurora kinase B (AURKB, Homo sapiens, UniProt Q96GD4) |  | untreated control | 91.4% |
| Myosin-IIIa (MYO3A, Homo sapiens, UniProt Q8NEV4) |  | untreated control | 91.5% |
| Serine/threonine-protein kinase ULK2 (ULK2, Homo sapiens, UniProt Q8IYT8) |  | untreated control | 195% |
| Mitogen-activated protein kinase 12 (MAPK12, Homo sapiens, UniProt P53778) |  | untreated control | 94.5% |
| Serine/threonine-protein kinase Chk1 (CHEK1, Homo sapiens, UniProt O14757) |  | untreated control | 97.4% |
| Ribosomal protein S6 kinase alpha-6 (RPS6KA6, Homo sapiens, UniProt Q9UK32) |  | untreated control | 102% |
| Serine/threonine-protein kinase tousled-like 1 (TLK1, Homo sapiens, UniProt Q9UKI8) |  | untreated control | 102% |
| Serine/threonine-protein kinase WNK3 (WNK3, Homo sapiens, UniProt Q9BYP7) |  | untreated control | 96.9% |
| Inhibitor of nuclear factor kappa-B kinase subunit alpha (CHUK, Homo sapiens, UniProt O15111) |  | untreated control | 144% and 167% |
| Mitogen-activated protein kinase 9 (MAPK9, Homo sapiens, UniProt P45984) |  | untreated control | 33.9% |
| NUAK family SNF1-like kinase 1 (NUAK1, Homo sapiens, UniProt O60285) |  | untreated control | 97.7% |
| Mitogen-activated protein kinase kinase kinase 6 (MAP3K6, Homo sapiens, UniProt O95382) | inhibitor |  | 98.8% |
| Receptor-interacting serine/threonine-protein kinase 4 (RIPK4, Homo sapiens, UniProt P57078) |  | untreated control | 77% |

Block 4
Target: DNA polymerase theta, ATPase domain (POLQ, Homo sapiens, UniProt O75417)
Chain of UniProt O75417 (whole entry, unmodified, looked up): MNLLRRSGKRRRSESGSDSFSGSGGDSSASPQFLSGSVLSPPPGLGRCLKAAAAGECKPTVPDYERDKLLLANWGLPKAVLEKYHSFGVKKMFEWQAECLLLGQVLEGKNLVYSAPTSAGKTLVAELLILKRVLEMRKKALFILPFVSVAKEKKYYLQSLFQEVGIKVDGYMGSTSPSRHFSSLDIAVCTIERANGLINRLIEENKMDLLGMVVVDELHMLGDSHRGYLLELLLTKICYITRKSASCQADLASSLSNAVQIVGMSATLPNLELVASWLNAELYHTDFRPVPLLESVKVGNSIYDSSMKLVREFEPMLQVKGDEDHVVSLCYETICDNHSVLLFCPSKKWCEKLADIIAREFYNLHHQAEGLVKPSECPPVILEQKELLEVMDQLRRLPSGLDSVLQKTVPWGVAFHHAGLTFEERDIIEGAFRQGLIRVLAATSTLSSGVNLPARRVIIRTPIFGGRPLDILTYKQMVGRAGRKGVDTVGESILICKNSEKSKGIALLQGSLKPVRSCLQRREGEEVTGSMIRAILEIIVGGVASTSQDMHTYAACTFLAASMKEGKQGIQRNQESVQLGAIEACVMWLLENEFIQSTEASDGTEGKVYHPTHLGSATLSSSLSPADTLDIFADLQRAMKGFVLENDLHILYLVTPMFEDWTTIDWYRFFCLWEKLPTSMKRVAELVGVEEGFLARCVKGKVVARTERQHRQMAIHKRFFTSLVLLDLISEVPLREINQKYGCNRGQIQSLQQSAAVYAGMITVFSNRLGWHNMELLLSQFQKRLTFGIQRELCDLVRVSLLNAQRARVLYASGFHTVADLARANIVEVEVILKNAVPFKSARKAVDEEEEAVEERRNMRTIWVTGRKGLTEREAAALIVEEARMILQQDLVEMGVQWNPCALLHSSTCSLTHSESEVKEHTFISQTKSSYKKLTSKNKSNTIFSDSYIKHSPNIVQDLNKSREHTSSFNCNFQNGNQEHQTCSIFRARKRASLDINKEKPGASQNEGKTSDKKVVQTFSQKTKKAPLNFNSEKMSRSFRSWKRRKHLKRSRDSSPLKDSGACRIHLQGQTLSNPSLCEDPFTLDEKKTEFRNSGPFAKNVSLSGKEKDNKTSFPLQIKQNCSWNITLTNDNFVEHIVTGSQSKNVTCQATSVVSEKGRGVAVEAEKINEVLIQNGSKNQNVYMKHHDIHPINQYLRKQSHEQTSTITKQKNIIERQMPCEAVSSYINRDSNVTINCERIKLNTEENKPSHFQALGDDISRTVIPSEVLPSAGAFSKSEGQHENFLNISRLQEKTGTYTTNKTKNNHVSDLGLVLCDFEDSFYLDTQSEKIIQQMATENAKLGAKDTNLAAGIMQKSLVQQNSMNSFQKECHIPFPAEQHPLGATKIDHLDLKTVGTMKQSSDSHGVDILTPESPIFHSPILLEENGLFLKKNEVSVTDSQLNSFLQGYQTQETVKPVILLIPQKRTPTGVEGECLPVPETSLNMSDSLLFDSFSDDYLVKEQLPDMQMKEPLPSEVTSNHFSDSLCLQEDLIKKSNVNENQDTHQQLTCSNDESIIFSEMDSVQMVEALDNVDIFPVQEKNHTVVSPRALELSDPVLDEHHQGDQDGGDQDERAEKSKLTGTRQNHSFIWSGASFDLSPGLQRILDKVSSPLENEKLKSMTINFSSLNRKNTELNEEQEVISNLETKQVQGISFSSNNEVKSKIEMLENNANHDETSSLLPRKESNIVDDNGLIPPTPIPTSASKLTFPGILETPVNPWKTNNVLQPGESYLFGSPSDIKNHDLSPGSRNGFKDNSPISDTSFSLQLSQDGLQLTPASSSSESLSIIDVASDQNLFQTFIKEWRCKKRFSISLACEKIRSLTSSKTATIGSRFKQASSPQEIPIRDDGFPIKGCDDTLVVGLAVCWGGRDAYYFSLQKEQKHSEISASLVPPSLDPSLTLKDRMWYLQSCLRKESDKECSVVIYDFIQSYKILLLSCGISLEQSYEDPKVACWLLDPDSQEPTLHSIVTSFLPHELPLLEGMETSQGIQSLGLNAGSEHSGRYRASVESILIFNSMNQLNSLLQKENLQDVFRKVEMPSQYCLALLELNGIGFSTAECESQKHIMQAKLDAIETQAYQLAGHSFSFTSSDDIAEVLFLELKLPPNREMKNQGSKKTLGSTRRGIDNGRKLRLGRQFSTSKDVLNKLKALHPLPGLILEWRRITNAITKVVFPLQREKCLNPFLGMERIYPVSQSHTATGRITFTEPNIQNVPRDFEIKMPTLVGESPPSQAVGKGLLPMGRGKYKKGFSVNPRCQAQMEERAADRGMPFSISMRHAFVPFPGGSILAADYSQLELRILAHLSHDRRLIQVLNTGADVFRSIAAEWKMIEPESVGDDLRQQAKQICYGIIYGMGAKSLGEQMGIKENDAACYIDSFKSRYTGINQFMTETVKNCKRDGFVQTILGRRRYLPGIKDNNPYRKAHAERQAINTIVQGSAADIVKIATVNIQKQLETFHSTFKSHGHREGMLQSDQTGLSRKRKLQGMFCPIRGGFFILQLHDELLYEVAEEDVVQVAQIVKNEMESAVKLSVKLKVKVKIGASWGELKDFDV
Effect on: enzyme activity
Mode: inhibitor
Concentration: 77 µM
Reference: untreated
| SMILES | remaining activity |
| --- | --- |
| c1ccc(Cn2c(-c3ccc(OC[C@H](C4CCNCC4)n4c(-c5ccccc5)nc5ccccc54)cc3)nc3ccccc32)cc1 | 93.9% |
| O=C(OCC(O)CO)c1ccccc1Nc1ccnc2cc(Cl)ccc12 (stereo not shown) | 102% |
| CC(=O)Nc1ccc(O)cc1 | 102% |
| CC1(C)[C@@H](O)CC[C@]2(C)[C@H]3C(=O)C=C4[C@@H]5C[C@@](C)(C(=O)O)CC[C@]5(C)CC[C@@]4(C)[C@]3(C)CC[C@@H]12 | 105% |
| NC(=O)c1ncn([C@@H]2O[C@H](CO)[C@@H](O)[C@H]2O)c1N | 91.5% |
| N#CCNC(=O)c1ccc(-c2ccnc(Nc3ccc(N4CCOCC4)cc3)n2)cc1 | 102% and 106% and 103% |
| NCCCCNCCCN | 98.9% |
| Oc1cc2c(cc1O)C(c1ccccc1)CNCC2 (stereo not shown) | 105% |

For quick reference, copied from above (block 3):
| target | mode | reference | remaining activity |
| --- | --- | --- | --- |
| Mitogen-activated protein kinase 12 (MAPK12, Homo sapiens, UniProt P53778) |  | untreated control | 94.5% |
| Serine/threonine-protein kinase Chk1 (CHEK1, Homo sapiens, UniProt O14757) |  | untreated control | 97.4% |
| Ribosomal protein S6 kinase alpha-6 (RPS6KA6, Homo sapiens, UniProt Q9UK32) |  | untreated control | 102% |
| Serine/threonine-protein kinase tousled-like 1 (TLK1, Homo sapiens, UniProt Q9UKI8) |  | untreated control | 102% |
| Serine/threonine-protein kinase WNK3 (WNK3, Homo sapiens, UniProt Q9BYP7) |  | untreated control | 96.9% |
